Published values gathered from unrelated publications.
A part holds a random share of what one study measured. Substitutions count along the parent as printed.

Sample 1 — target: CCND2, cyclin fold, Cln2 fusion (human); technique: yeast growth competition, sequencing; sample: yeast; notes: weak parent motif; reference: not given; reading: higher = stronger binding
Starting sequence: MICAL3 docking peptide (human); LQLRRQLSFSEDS; partner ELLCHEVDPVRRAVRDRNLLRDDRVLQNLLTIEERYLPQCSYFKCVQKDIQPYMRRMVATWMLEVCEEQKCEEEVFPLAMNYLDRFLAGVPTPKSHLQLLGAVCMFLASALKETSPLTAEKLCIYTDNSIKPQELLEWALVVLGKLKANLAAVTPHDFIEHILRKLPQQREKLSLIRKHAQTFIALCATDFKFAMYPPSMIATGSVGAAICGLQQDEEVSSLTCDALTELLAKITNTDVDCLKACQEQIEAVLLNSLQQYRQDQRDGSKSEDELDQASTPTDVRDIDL
Substitution	normalised enrichment score
LQVRRQLSFSEDS [L3V]	0.753
LQLRNQLSFSEDS [R5N]	0.6
LQLRRQLSFSECS [D12C]	0.0446
LQLRRQLSFSERS [D12R]	0.0928
LQLRRQLSFSCDS [E11C]	0.159
LQLRRQLSWSEDS [F9W]	0.326
LQLRRFLSFSEDS [Q6F]	-0.726
LQLRRQLSFSGDS [E11G]	0.121
LQLRRQLSFSEWS [D12W]	-0.0508

Sample 2 — technique: RNA Bind-n-Seq; form: RNA; sample: in vitro; tested at: 200 nM; notes: whole 134-nt RNA, ends assumed; with: 150 mM KCl; reference: input library; reading: higher = stronger binding
Target: Ras GTPase-activating protein-binding protein 1, full length (G3BP1, Homo sapiens, UniProt Q13283)
Sequence of UniProt Q13283 (whole entry, looked up): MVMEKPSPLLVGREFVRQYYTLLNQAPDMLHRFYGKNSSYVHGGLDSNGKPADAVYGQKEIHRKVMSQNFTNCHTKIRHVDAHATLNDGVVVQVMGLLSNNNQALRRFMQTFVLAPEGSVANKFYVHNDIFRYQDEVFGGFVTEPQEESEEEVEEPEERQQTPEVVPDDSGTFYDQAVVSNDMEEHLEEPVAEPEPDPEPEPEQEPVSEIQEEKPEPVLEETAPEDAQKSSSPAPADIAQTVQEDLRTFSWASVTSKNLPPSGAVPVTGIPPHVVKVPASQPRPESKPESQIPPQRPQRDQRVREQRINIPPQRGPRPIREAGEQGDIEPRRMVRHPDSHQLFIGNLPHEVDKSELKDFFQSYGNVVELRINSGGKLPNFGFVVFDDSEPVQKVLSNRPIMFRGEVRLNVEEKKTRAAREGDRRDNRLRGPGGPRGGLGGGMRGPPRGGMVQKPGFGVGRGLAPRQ
All sequences stand within: GGGAGUUCUACAGUCCGACGAUC … UGGAAUUCUCGGGUGUCAAGG
Strand	log2 enrichment
UCCCGGGCGCUAGCCCACCUCCCACCCGCCUCUUGGCUCCUCUCCUCUAGGCCGUCGCUUUCGGGUUCUCUCAUCGCUUCGUCGUUCGCC	0.738
AAGUCCUGUGCUACACAUCGUAUGUACCGAAUCGGGUUUGGGUUUGGGGUUUGGGGAAAGUAUUAUGUUACGCCGUUCGGAUCUGCACUU	0.467
GUCCUGUGCUACACAUCGUAUGUACCGAAUCGGGGUUUUUUUGGGGUGGGGAAAGGGGAAAGUAUUAUGUUACGCCGUUCGGAUCUGCAC	0.421
UGGCCCUGGUGGCAUGCGGGGAGGAAGAGGUGGCCUCAUGGAUCGUGGUGGUCCCGGUGGAAUGUUCAGCGGUGGCCGUGGUGGAGACAG	0.0788
GCAGGAAGUAAAAACAAGUGGAAAUGCUUCGGAUAGUGGCAGGGGUGGGGGUUGCUAAGGAAAGGGUGGGAUGGGAGUGGGUAAAGAGUU	1.39
UGGAGCUGAAGAGCCAAGAGGCUCCGAGUCUGCAGCAGCAGCCAGACCAGUACCUGGAGCCCCAGUCCCACAAGGAGCUUGGAUGUGCGG	-0.634
UGAUGAUAGUAGCAGAGAAGAUGAACAUACACAUACUAACAGUGUCACGAACUCCAGUAGUAUUGUGGACCUGCCCGUUCACCAACUCUC	0.205
GUUAAUUCCACCAUCCCCAUCACAGCAGAAGUUUUCAAGAAGCAUGGAGUGUACAACCCCAACAAAAUCUUCGGCGUGACGACCCUGGAC	1.18

Sample 3 — technique: competition protein-binding microarray; form: double-stranded DNA, one strand shown; sample: in vitro; tested at: 2 µM; with: Pho4 competitor, 0.05 µM; reading: higher = stronger binding; all sequences stand within: … GTCTTGATTCGCTTGACGCTGCTG
Target: Centromere-binding protein 1, full length, His-tagged (CBF1, Saccharomyces cerevisiae, UniProt P17106, residues 1-351)
Sequence of UniProt P17106 (whole entry, looked up): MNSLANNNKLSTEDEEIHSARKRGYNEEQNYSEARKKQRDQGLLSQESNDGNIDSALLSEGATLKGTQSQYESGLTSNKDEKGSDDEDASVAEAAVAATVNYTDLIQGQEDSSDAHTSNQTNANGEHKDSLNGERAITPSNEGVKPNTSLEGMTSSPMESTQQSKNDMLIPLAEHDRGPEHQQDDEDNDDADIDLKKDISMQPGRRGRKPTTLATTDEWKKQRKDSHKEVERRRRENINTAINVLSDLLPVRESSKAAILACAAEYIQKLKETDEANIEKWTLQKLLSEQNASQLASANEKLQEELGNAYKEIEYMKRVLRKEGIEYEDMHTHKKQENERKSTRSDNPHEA
Notes: whole 60-bp probe, lowest competitor level
Strand	fluorescence intensity [a.u.]
GTCTTGTCTCATTTTCACGTGCGTTTCCCCACTTCA	780
ACAAAATTGCAGGGCAACGTGTATCATTCAGTAGAG	95.8
TCATGGTGAATTTTGCACGTGGCCGTCCAAGTCCTT	1230
TAGCTGACATCCAAGCATGCGTGGAAGATTTCTTAA	61.2
CCAAAAAGCCTCCGTCACGTGGTCGCTTGCGCTTAT	4250
GAGAGGAAGACGCGTTTCGTGGGACTTGGACCACTA	58.7
ATTTTTATAATATCCAATAGAGTAGAGTTGTTACAT	69.6
CTATACTGTCATAGACCCGTGTGGAGGAGGCAGCGC	63

Other studies, line by line
Substance	target	test	system	setting	how to read	endpoint	result
PhoQ, residues 284 288 289 292 302 303 SCEHLI	PhoP, residues 12 14 15 18 19 SEGLL (Escherichia coli, UniProt P23836)	Sort-seq, refers to: YFP reporter	E. coli	PhoQ-PhoP variant library, with: 10 µM Mg2+	reference: high Mg2+ state, higher = stronger signaling	fold induction	13.4

Repeated from above (sample 3):
Strand	fluorescence intensity [a.u.]
TAGCTGACATCCAAGCATGCGTGGAAGATTTCTTAA	61.2
CCAAAAAGCCTCCGTCACGTGGTCGCTTGCGCTTAT	4250
GAGAGGAAGACGCGTTTCGTGGGACTTGGACCACTA	58.7
